Measurements gathered from unrelated publications.
A part holds a random share of what one study measured. Substitutions count along the parent as printed.

Block 1
Target: Interferon regulatory factor 5, full length, phosphomimetic (IRF5, Homo sapiens, UniProt Q13568-2, residues 1-514, K96S/S451D/S453D/S456D/S462D)
Method: protein-binding microarray
Molecule type: double-stranded DNA, one strand shown
Medium: in vitro
Tested at: 250 nM
Setting: 60-bp whole probe
With: salmon DNA 0.4 mg/ml
Baseline: random background probes
Direction: higher = stronger binding
All sequences stand within: GCCTAGCAC … GTCTTGATTCGCTTGACGCTGCTG
`CTGCCTTTCAATCCTAGGCCGTGCTAG` gave a log fluorescence of 0.414 z-score.
For `GACGGTCTCCTTCTCCTGGCGTGCTAG`, the log fluorescence was 0.16 z-score.
The log fluorescence of `TCAGTTTCCCCTATTTAACTGTGCTAG` is reported as 2.28 z-score.
For `GGCTTTTTAATGAATGAAGAGGTGCTA`, the log fluorescence was -0.178 z-score.
For `GCCGGACTGGACTATCGGGACGTGCTA`, the log fluorescence was 0.681 z-score.
`TTAGATCTCAGTTTCGGTTAGTGCTAG` has a log fluorescence of 9.82 z-score.
For `CGAGACCTCGTCTCTATCAAAGTGCTA`, the log fluorescence was -0.0969 z-score.
With `TCCCTTTCAGTTTTCCTCTGGTGCTAG` the log fluorescence was 4.22 z-score.
`GACGATTTCAGTCTCGAGTCGTGCTAG` has a log fluorescence of 1.56 z-score.
With `CTCACCTCAGCCTCCCAAGTGTGCTAG` the log fluorescence was -0.303 z-score.
`TCACTTTGGCCTCTAGGACTGTGCTAG` gave a log fluorescence of -0.207 z-score.
For `TCATATTTGTCCCTATTACTGTGCTAG`, the log fluorescence was 0.763 z-score.
`TCAAAAATCAAGTCTGGGACTGTGCTA` has a log fluorescence of -0.574 z-score.
`GACGGTATCTACTTTCGGGACGTGCTA` has a log fluorescence of 7 z-score.
`GACGGTTTCGACTTTCGGGAAGTGCTA` gave a log fluorescence of 8.43 z-score.
With `TTAGGTATCCACACTGGGTTAGTGCTA` the log fluorescence was -0.203 z-score.
`GACGGTTGCCTTCTCCTGACGTGCTAG` gave a log fluorescence of 0.0753 z-score.
`TTAGGTATCGGACTGGGTGAGTGCTAG` has a log fluorescence of 1.49 z-score.

Block 2
Target: Histone acetyltransferase KAT6A, both winged helices, GST fusion (KAT6A, Homo sapiens, UniProt Q92794, residues 1-181)
Method: protein binding microarray
Molecule type: double-stranded DNA, one strand shown
Medium: in vitro
Tested at: not given
Setting: 8-mer, flanks averaged, mean of 2 arrays, mostly near background
Baseline: not given
Direction: higher = stronger binding
Construct (chain): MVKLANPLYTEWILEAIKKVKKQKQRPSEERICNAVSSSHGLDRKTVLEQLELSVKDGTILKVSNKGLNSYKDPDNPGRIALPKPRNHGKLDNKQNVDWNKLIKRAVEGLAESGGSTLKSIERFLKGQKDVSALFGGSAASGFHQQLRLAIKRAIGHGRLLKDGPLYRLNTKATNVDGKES
`AGCTCAGG` has an E-score of -0.0328.
With `GGCACCCA` the E-score was -0.0662.
For `GGCGCCCC`, the E-score was 0.278.
`CATGTTGC` gave an E-score of 0.0958.
The E-score of `CAACGGCG` is reported as 0.289.
With `AGGTCCAA` the E-score was -0.0907.
`TATGGGGA` gave an E-score of -0.12.
`CAGAATGG` gave an E-score of -0.201.
`GTTTGCCA` has an E-score of 0.0355.
The E-score of `CTAACTCC` is reported as -0.0908.
`ATACGTTC` gave an E-score of -0.0473.
With `ACGAGTGA` the E-score was -0.0798.
`GTAGATAC` has an E-score of -0.048.
For `CAACTGTG`, the E-score was -0.00797.
The E-score of `AGTCGTGC` is reported as -0.0801.
For `GGGCTTCA`, the E-score was -0.000955.
`GGACGGAC` has an E-score of 0.157.
With `CGAGACGC` the E-score was 0.174.
With `GTCGGGTA` the E-score was 0.132.
With `ATAGGCAT` the E-score was -0.0457.
With `CAATATGG` the E-score was -0.163.
`AGCAACAG` gave an E-score of -0.0927.
For `CGACCAGA`, the E-score was -0.0173.
`AACTAGAC` has an E-score of 0.0328.
`ACAGCGAT` has an E-score of -0.0345.

Block 3
Target: PABPC1L2, full length, GST fusion (mouse, UniProt A0ABA7IW68)
Method: RNAcompete
Molecule type: RNA
Medium: in vitro
Tested at: 20 nM
Setting: 7-mer, probes averaged, single round
Baseline: mean of 7-mers
Direction: higher = stronger binding
Target sequence (chain): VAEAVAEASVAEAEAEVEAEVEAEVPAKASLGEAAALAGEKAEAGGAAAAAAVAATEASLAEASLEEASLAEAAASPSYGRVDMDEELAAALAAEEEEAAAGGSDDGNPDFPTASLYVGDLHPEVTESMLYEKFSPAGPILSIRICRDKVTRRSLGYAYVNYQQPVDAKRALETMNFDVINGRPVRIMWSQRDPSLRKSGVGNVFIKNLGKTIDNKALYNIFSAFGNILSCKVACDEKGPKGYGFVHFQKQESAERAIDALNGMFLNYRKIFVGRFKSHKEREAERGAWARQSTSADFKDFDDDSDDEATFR
The 7-mer Z-score of `GCAUAUC` is reported as -0.146.
The 7-mer Z-score of `UAGGGGG` is reported as 0.521.
With `AUCAACA` the 7-mer Z-score was -0.0156.
With `GCUCAUG` the 7-mer Z-score was -0.122.
With `UGGGUAU` the 7-mer Z-score was -0.0699.
For `UUAAGCC`, the 7-mer Z-score was -0.22.
The 7-mer Z-score of `CGUUGUA` is reported as -0.313.
For `ACCGGUC`, the 7-mer Z-score was -0.257.
With `GCUGCCU` the 7-mer Z-score was -0.26.
`AUAUGCG` has a 7-mer Z-score of 0.0478.
For `CGGUUGG`, the 7-mer Z-score was -0.0283.
`CAUUUCG` has a 7-mer Z-score of -0.353.
With `UUUAUUG` the 7-mer Z-score was 0.131.
For `CCGUUUG`, the 7-mer Z-score was -0.559.
For `CUGUAGA`, the 7-mer Z-score was -0.0464.
`CUGGAUG` gave a 7-mer Z-score of -0.0699.
For `GAAAGGA`, the 7-mer Z-score was 0.349.
The 7-mer Z-score of `UGCUGUU` is reported as -0.458.
With `GUGAAAU` the 7-mer Z-score was 0.0116.
The 7-mer Z-score of `GGUAAAG` is reported as 0.423.
The 7-mer Z-score of `UUUGCUG` is reported as -0.427.
`CGGGCUG` has a 7-mer Z-score of -0.0591.
For `CGGAGGC`, the 7-mer Z-score was -0.0138.
For `CGUGUGG`, the 7-mer Z-score was 0.142.
For `GACAAUG`, the 7-mer Z-score was -0.0301.

Block 4
Target: ABI1, truncated, D143A, DHFR fusion (Arabidopsis thaliana)
Method: DHFR PCA, deep sequencing
Medium: yeast
Setting: methotrexate growth selection, single substitutions
With: (+)-ABA 58 µM
Baseline: wild-type fitted maximum
Direction: higher = stronger binding
Parent: PYL1, truncated, DHFR fusion (Arabidopsis thaliana); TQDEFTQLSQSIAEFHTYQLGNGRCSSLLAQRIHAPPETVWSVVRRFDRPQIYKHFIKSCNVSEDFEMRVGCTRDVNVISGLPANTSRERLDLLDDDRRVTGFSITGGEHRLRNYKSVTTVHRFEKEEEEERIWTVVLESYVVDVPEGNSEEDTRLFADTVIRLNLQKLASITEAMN; partner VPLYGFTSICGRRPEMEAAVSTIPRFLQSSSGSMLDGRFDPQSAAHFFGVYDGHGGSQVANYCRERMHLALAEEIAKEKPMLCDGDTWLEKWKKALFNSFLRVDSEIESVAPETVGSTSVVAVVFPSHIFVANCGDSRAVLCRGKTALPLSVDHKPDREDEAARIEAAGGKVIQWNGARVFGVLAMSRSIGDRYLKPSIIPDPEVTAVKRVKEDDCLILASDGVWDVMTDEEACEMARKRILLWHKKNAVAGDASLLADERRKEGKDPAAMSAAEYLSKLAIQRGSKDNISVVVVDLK
For `K168P`, “relative binding score” read -7.34%.
`L8M`: “relative binding score” 83.9%.
For `L20M`, “relative binding score” read 87.9%.
`G107S` — result for “relative binding score”: 69.9%.
`R113A` — result for “relative binding score”: 89.1%.
`E109N`: “relative binding score” 94.6%.
For `E64N`, “relative binding score” read 84.6%.
`I52D` — result for “relative binding score”: 91%.
Under “relative binding score”, `V161C` is recorded as 58.8%.
`R32I` — result for “relative binding score”: 85.1%.
`R132E` — result for “relative binding score”: 106%.
For `I52C`, “relative binding score” read 81.1%.
`V78H`: “relative binding score” 13.8%.
`E64K` — result for “relative binding score”: 85.8%.
`A175T`: “relative binding score” 86.7%.
`D159K`: “relative binding score” 20.9%.
Under “relative binding score”, `Q2V` is recorded as 85.2%.
Under “relative binding score”, `P50E` is recorded as 1.71%.
Under “relative binding score”, `P37I` is recorded as 80.6%.
For `H55I`, “relative binding score” read 82.8%.
`E139C`: “relative binding score” 80.1%.

Block 5
Target: Centromere-binding protein 1, full length, His-tagged (CBF1, Saccharomyces cerevisiae, UniProt P17106, residues 1-351)
Sequence of UniProt P17106 (whole entry, looked up): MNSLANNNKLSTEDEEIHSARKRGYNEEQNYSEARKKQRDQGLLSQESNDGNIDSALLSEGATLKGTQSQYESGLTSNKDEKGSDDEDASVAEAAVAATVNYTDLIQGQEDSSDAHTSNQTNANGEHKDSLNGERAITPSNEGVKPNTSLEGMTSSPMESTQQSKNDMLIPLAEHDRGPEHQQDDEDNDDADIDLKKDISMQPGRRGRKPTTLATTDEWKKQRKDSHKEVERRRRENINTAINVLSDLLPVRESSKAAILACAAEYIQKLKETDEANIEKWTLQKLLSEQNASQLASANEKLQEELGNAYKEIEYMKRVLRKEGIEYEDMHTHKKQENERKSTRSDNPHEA
Method: competition protein-binding microarray
Molecule type: double-stranded DNA, one strand shown
Medium: in vitro
Tested at: 2 µM
Setting: whole 60-bp probe, lowest competitor level
With: Pho4 competitor, 0.05 µM
Direction: higher = stronger binding
All sequences stand within: … GTCTTGATTCGCTTGACGCTGCTG
`ACTGGCAGCTCATTACTCGTGACGGAGCTTTAACAG` gave a fluorescence intensity of 201 a.u.
`GCAATAGACACCACAAACGTGCGGAAGAAACCGCAA` gave a fluorescence intensity of 83.3 a.u.
For `GCAAGATCTAACGGCCACGTATTCTGGGCTTGGAGA`, the fluorescence intensity was 69.2 a.u.
The fluorescence intensity of `CAAAGAAAATGCTCCCTCGTGGCCGTCCATCCAGGC` is reported as 72.9 a.u.
With `AAGCGCAGGAGGAGCAGCGTGGCGCAACCTTAAGGC` the fluorescence intensity was 50.1 a.u.
With `GTGGCAGGAGGGTTTCTATTTAGTGTTCGGTAAAGG` the fluorescence intensity was 79.3 a.u.
The fluorescence intensity of `CTAACGAAGGTTTTTCACGTGGCGTACAAGCCAAGT` is reported as 579 a.u.
`CGGGGTTAAGTTTCGCACGTGTTTTGCTTGCAGCAG` has a fluorescence intensity of 846 a.u.
`CGTCCTAGTGATTGTCACTGAACTTCCATGAGGAAG` gave a fluorescence intensity of 89.2 a.u.
`CGCTACCAACTGCGCCATGTGCCCAGAATTTCTGTA` gave a fluorescence intensity of 183 a.u.
`CGTCCTAGTGATTGTCACATAACTTCCATGAGGAAG` has a fluorescence intensity of 104 a.u.
The fluorescence intensity of `CTAACGAAGGTTTTTCACGTGCCTTACAAGCCAAGT` is reported as 1280 a.u.
`TTAAAGTTTCTCCATCACGTGAAGCATTACCATTTT` has a fluorescence intensity of 3500 a.u.
The fluorescence intensity of `CATTTATTCTCTACCCATGTGGTGCCTGCCAGATCC` is reported as 137 a.u.
The fluorescence intensity of `GAAGGAGTGCGGGACCCCGTGGGTACCGCATCCCTT` is reported as 85.1 a.u.
`GTCTTCTGCCCCGGTCATATGAGTGGTATTCTTCTA` gave a fluorescence intensity of 139 a.u.
`GTCTTGTCTCATTGTCACAAAACTTTCCCCACTTCA` gave a fluorescence intensity of 92 a.u.
`GAACAAGACAATCCACACGGGATTTTGACGCCCCTA` has a fluorescence intensity of 89.8 a.u.

Repeated from above (block 3):
The 7-mer Z-score of `GCAUAUC` is reported as -0.146.
The 7-mer Z-score of `UAGGGGG` is reported as 0.521.
With `AUCAACA` the 7-mer Z-score was -0.0156.
With `GCUCAUG` the 7-mer Z-score was -0.122.
With `UGGGUAU` the 7-mer Z-score was -0.0699.
For `UUAAGCC`, the 7-mer Z-score was -0.22.
The 7-mer Z-score of `CGUUGUA` is reported as -0.313.
For `ACCGGUC`, the 7-mer Z-score was -0.257.
With `GCUGCCU` the 7-mer Z-score was -0.26.
`AUAUGCG` has a 7-mer Z-score of 0.0478.
For `CGGUUGG`, the 7-mer Z-score was -0.0283.
`CAUUUCG` has a 7-mer Z-score of -0.353.
With `UUUAUUG` the 7-mer Z-score was 0.131.
For `CCGUUUG`, the 7-mer Z-score was -0.559.
For `CUGUAGA`, the 7-mer Z-score was -0.0464.
`CUGGAUG` gave a 7-mer Z-score of -0.0699.
For `GAAAGGA`, the 7-mer Z-score was 0.349.
